Results collected from several papers.
Each line is one published result; not all experiments were run side by side. ± gives the spread as reported.
UniProt Q15208, sequence (whole entry, looked up): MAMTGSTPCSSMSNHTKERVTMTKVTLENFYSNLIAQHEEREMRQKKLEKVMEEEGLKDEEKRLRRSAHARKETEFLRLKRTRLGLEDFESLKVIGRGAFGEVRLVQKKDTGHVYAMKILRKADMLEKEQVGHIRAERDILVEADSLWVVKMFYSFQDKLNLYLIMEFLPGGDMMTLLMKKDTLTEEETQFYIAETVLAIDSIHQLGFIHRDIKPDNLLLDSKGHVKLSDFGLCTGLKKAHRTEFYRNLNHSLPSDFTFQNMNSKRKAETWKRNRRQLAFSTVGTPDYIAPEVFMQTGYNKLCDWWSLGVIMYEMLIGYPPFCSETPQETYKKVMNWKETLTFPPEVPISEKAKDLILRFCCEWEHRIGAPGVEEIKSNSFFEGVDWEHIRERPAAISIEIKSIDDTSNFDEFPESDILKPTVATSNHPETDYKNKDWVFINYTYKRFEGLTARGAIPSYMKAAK
UniProt P50552, sequence (whole entry, looked up): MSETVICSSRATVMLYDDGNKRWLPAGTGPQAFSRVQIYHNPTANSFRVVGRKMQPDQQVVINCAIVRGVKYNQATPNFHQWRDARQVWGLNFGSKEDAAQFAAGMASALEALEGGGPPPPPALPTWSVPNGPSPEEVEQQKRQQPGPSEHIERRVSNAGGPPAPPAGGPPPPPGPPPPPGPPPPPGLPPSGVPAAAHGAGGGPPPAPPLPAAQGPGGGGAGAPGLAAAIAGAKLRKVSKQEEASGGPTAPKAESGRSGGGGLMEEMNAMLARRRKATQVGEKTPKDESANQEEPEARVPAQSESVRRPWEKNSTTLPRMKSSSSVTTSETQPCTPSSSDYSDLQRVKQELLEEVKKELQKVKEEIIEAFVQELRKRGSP
UniProt Q9P286, sequence (whole entry, looked up): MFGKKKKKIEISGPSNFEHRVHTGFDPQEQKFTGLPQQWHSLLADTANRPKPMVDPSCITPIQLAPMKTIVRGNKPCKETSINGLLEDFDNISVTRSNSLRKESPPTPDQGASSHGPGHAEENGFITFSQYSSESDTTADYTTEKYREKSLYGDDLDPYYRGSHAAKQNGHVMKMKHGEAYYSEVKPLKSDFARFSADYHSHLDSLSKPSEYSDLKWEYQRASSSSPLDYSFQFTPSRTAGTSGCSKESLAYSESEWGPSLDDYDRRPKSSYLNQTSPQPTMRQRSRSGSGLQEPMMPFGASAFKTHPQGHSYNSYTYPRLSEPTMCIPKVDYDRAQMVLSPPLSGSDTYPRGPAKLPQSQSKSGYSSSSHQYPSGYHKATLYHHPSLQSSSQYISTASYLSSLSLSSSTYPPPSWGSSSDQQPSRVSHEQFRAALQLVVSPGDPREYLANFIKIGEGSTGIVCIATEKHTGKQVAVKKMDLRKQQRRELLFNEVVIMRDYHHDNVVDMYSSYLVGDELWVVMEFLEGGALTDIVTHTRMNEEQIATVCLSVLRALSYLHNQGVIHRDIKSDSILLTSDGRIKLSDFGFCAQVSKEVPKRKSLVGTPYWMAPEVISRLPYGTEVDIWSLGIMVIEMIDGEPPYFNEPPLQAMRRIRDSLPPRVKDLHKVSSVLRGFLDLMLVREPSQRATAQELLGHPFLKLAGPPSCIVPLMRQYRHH
UniProt P32246, sequence (whole entry, looked up): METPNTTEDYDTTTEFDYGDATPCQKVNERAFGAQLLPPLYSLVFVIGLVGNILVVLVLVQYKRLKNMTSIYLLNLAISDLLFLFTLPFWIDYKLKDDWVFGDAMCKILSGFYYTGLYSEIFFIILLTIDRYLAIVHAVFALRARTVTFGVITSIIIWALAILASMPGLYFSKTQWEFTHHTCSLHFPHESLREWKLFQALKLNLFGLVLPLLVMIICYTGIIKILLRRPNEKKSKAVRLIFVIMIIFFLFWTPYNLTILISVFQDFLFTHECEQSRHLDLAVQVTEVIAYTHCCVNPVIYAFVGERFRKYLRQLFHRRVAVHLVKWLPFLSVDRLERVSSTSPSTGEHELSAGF
UniProt P00811, sequence (whole entry, looked up): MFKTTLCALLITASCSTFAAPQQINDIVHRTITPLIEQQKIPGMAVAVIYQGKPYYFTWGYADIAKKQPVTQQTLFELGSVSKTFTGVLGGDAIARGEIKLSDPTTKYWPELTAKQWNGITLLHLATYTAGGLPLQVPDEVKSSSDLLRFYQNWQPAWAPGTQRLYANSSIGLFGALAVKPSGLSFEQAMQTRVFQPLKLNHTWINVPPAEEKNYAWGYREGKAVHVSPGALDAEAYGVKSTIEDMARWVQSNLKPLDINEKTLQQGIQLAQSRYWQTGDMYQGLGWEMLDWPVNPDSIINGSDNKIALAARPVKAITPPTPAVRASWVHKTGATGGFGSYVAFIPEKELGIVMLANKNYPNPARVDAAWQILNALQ
UniProt Q96SW2, sequence (whole entry, looked up): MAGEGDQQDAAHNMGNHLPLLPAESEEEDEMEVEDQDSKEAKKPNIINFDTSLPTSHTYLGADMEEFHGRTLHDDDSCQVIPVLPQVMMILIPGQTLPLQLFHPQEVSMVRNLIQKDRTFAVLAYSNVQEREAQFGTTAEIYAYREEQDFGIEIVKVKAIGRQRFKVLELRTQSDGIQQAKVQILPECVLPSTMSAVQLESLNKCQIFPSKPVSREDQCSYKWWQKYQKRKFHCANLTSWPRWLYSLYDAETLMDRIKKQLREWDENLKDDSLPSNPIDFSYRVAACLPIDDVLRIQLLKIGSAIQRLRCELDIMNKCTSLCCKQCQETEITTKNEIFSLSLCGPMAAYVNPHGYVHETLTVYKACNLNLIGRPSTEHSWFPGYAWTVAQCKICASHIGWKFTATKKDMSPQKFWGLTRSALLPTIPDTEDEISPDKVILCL

SMILES	target or system	assay	system	conditions	how to read	endpoint	value
CN(C)[C@H]1C[C@@]23CC[C@@]4(O2)C(=CC[C@]2(C)[C@@H](c5ccc6ccncc6c5)CC[C@H]24)C=C3[C@@H](O)[C@@H]1O	Serine/threonine-protein kinase 38 (STK38, Homo sapiens, UniProt Q15208)	ATP probe labelling, inhibitor, KiNativ profiling		1 µM		inhibition	0.4%
CC(C)[C@H](NC(=O)[C@H](CCCNC(=N)N)NC(=O)[C@H](Cc1c[nH]c2ccccc12)NC(=O)CN)C(=O)N[C@@H](CO)C(=O)N[C@@H](CCC(=O)O)C(=O)N[C@@H](Cc1ccccc1)C(=O)NCC(=O)NCC(=O)NCC(=O)N[C@@H](CO)C(=O)N[C@@H](CCCCNC(=O)CCCC[C@@H]1SC[C@@H]2NC(=O)N[C@@H]21)C(=O)O	cowpea mosaic virus	competitive phage ELISA				Kd	~0.007 µM
CC12CCC(C(=O)O)(OC1=O)C2(C)C (stereo not shown)	Beta-lactamase (ampC, Escherichia coli K-12, UniProt P00811)					Kd	5800 µM
CS(C)(=O)=Nc1ccc(-c2ccc(-c3nc4cc(O[C@@H]5CO[C@H]6[C@@H]5OC[C@H]6O)[nH]c4cc3F)cc2)cc1	C-C chemokine receptor type 1 (CCR1, Homo sapiens, UniProt P32246)	calcium signal, antagonist		10 µM		inhibition	26%
CC[C@H](C)[C@H](NC(=O)[C@H](CCCCNC(=O)CN(CCNC(=O)CN(CCNC(=O)CN(CCNC(=O)CN(CCNC(=O)[C@H](CCCNC(=N)N)NC(C)=O)C(=O)Cn1ccc(N)nc1=O)C(=O)Cn1cnc2c(=O)[nH]c(N)nc21)C(=O)Cn1cnc2c(=O)[nH]c(N)nc21)C(=O)Cn1ccc(N)nc1=O)NC(=O)[C@H](C)NC(=O)[C@H](CCCNC(=N)N)NC(=O)[C@H](CCCCN)NC(=O)[C@H](CCC(N)=O)NC(=O)[C@H](CCC(N)=O)NC(=O)[C@H](CC(N)=O)NC(=O)[C@@H](NC(=O)[C@H](CC(C)C)NC(=O)[C@H](CC(N)=O)NC(=O)[C@@H]1CCCN1C(=O)[C@H](CC(=O)O)NC(=O)[C@H](CC(C)C)NC(=O)[C@H](C)NC(=O)[C@H](CS)NC(=O)[C@H](CCCC(=O)NCCN(CC(=O)NCCN(CC(=O)NCCN(CC(=O)NCCN(CC(=O)N[C@@H](CCCNC(=N)N)C(N)=O)C(=O)Cn1cnc2c(=O)[nH]c(N)nc21)C(=O)Cn1ccc(N)nc1=O)C(=O)Cn1ccc(N)nc1=O)C(=O)Cn1cnc2c(=O)[nH]c(N)nc21)NC(=O)[C@H](Cc1c[nH]c2ccccc12)NC(=O)[C@H](Cc1ccc(O)cc1)NC(=O)[C@H](CCCNC(=N)N)NC(=O)[C@H](CC(N)=O)NC(=O)[C@H](CCCNC(=N)N)NC(=O)[C@H](CCSC)NC(=O)[C@H](CCC(=O)O)NC(=O)[C@H](CCCCN)NC(=O)[C@H](CO)NC(=O)[C@H](Cc1ccccc1)NC(C)=O)[C@@H](C)O)C(=O)N[C@@H](CCCNC(=N)N)C(=O)N[C@@H](CO)C(=O)N[C@H](C(=O)N[C@@H](Cc1ccc(O)cc1)C(=O)N[C@@H](CCC(=O)O)C(=O)N[C@@H](CCC(=O)O)C(=O)NCC(=O)N[C@@H](CCC(=O)O)C(N)=O)[C@@H](C)CC	Receptor tyrosine-protein kinase erbB-2 (ERBB2, Homo sapiens, UniProt P04626)	binding, SPR				Kd	0.0033 µM
CCCC[C@H](NC(=O)[C@H](CCCNC(=N)N)NC(=O)[C@H](CCCNC(=N)N)NC(=O)[C@H](CC(C)C)NC(=O)[C@H](CCC(=O)O)NC(=O)[C@H](CCCNC(=N)N)NC(=O)CNC(=O)[C@]1(C)CCCC=CCCC[C@](C)(NC(=O)[C@H](Cc2c[nH]c3ccccc23)NC(=O)COCCOCCNC(=O)CCCC[C@@H]2SC[C@@H]3NC(=O)N[C@@H]32)C(=O)N[C@@H](C)C(=O)N[C@@H](CCC(N)=O)C(=O)N[C@@H](CCCNC(=N)N)C(=O)N1)C(=O)N[C@@H](CO)C(=O)N[C@@H](CC(=O)O)C(=O)N[C@@H](CCC(=O)O)C(=O)N[C@@H](Cc1ccccc1)C(=O)N[C@H](C(=O)N[C@@H](CC(=O)O)C(=O)N[C@@H](CO)C(=O)N[C@@H](Cc1ccccc1)C(=O)N[C@@H](CCCCN)C(N)=O)C(C)C	Apoptosis regulator Bcl-2 (BCL2, Homo sapiens, UniProt P10415, G101V)	binding, biolayer interferometry		immobilised compound		Kd	0.0201 µM
CC[C@H](C)[C@H](NC(=O)[C@H](CCC(=O)O)NC(=O)[C@H](CCC(=O)O)NC(=O)[C@H](Cc1ccccc1)NC(=O)[C@H](CCCCN)NC(=O)[C@@H]1CCCN1C(=O)[C@H](Cc1c[nH]cn1)NC(=O)[C@H](CCCCN)NC(=O)[C@H](CO)NC(=O)[C@H](CC(C)C)NC(=O)[C@H](Cc1c[nH]cn1)NC(C)=O)C(=O)N[C@@H](CC(C)C)C(=O)N[C@H](C(=O)N[C@@H](CCCNC(=N)N)C(=O)N[C@@H](CC(C)C)C(=O)N[C@@H](CCCNC(=N)N)C(=O)N[C@@H](CC(C)C)C(=O)N[C@@H](CCC(N)=O)C(N)=O)[C@@H](C)O	Calmodulin-1, C-lobe (CALM1, Homo sapiens, UniProt P0DP23)	isothermal titration calorimetry	calmodulin C-lobe fragment	added: 1 mM CaCl2		Kd	3.22 µM
O=C1NC2(CC2)COc2ncc(F)cc2[C@H]2COCCN2c2ccn3ncc1c3n2			Sprague-Dawley rat, male, serum	oral, 20 mg/kg/day, 4 weeks daily, end of treatment		pancreatic amylase activity	1840 ± 514 U/L
CC(C)C[C@H](NC(=O)[C@@H]1CCCN1C(=O)[C@H](C)NC(=O)[C@H](CCC(=O)O)NC(=O)[C@@H](NC(=O)[C@@H](N)CC(C)C)[C@@H](C)O)C(=O)N[C@H]1CC(=O)NC1=O	Protein cereblon, with DDB1 (CRBN, Homo sapiens, UniProt Q96SW2)	binding				Kd	0.0564 µM
CC(=O)N[C@@H](CO)C(=O)N[C@@H](Cc1ccccc1)C(=O)N[C@@H](CCC(=O)O)C(=O)N[C@@H](Cc1ccccc1Cl)C(=O)N1CCC[C@H]1C(=O)N1CCC[C@H]1C(=O)N1CC[C@@H]2C=C[C@H]3CC[C@@H](C(=O)N[C@H](C(=O)N[C@@H](CCC(=O)O)C(=O)N[C@@H](CC(=O)O)C(=O)N[C@@H](CCC(=O)O)C(=O)N[C@@H](CC(C)C)C(N)=O)[C@@H](C)O)N3C(=O)[C@H]21	Vasodilator-stimulated phosphoprotein (VASP, Homo sapiens, UniProt P50552)	binding, fluorescence				Kd	0.31 µM
O=C(N[C@@H]1c2ccccc2C[C@H]1N1CCCC1)c1ccc(-c2ccnc3[nH]ccc23)nc1	Serine/threonine-protein kinase PAK 5 (PAK5, Homo sapiens, UniProt Q9P286)	binding, competition with immobilised ligand				Kd	0.18 µM
C=C[C@H]1CN(Cc2ccccn2)C(=O)[C@@H]2CCC[C@H]1N2[S@@+]([O-])c1cc(Cl)cc(Cl)c1	uncharacterized protein, residues 23-253 (Pseudomonas aeruginosa, UniProt Q9HYX8)	binding, competitive fluorescence polarization		30 min, protein 40 nM, added: fluorescent tracer 1 nM		Kd	0.851 ± 0.098 µM
COc1ccccc1-c1n[nH]c2nc(NC3CCN(C(=O)Cc4ccc(F)cc4F)CC3)ncc12		bead binding, competition bead pull-down, measured: LMJF.21.0280	Leishmania donovani axenic amastigote extract	10 µM	reference: vehicle	relative abundance	0.84

Excerpt of the above:
SMILES	target or system	assay	system	conditions	how to read	endpoint	value
CC(C)[C@H](NC(=O)[C@H](CCCNC(=N)N)NC(=O)[C@H](Cc1c[nH]c2ccccc12)NC(=O)CN)C(=O)N[C@@H](CO)C(=O)N[C@@H](CCC(=O)O)C(=O)N[C@@H](Cc1ccccc1)C(=O)NCC(=O)NCC(=O)NCC(=O)N[C@@H](CO)C(=O)N[C@@H](CCCCNC(=O)CCCC[C@@H]1SC[C@@H]2NC(=O)N[C@@H]21)C(=O)O	cowpea mosaic virus	competitive phage ELISA				Kd	~0.007 µM
